Measured values pooled from the literature.
Several values in a cell are separate wells, animals, samples, runs or records. ± gives the spread as reported.

Structure (SMILES)	target or system	assay	system	conditions	scale	measurement	value
C[S]1CC[S]2CC[P](CO)(CO)[99Tc+]12.[C-]#[O+].[C-]#[O+].[C-]#[O+]	–	–	CF-1 mouse	intravenous, 1 h	–	uptake in blood	0.6 %ID and 0.59 %ID
CCCC[C@H](NC(=O)CCCCCCCNC(=O)c1ccc(NN)nc1)C(=O)N[C@H]1CC(=O)NCCCC[C@@H](C(N)=O)NC(=O)[C@H](Cc2c[nH]c3ccccc23)NC(=O)[C@H](CCCNC(=N)N)NC(=O)[C@@H](Cc2ccccc2)NC(=O)[C@H](Cc2c[nH]cn2)NC1=O [technetium-99m labelled]	–	–	C57 mouse, B16/F1 melanoma, tumor	intravenous, 24 h	–	uptake	7.13 ± 0.99 %ID/g
CC(C)C[C@H](NC(=O)[C@H](CCCCN)NC(=O)[C@H](C)NC(=O)[C@@H]1CCCN1C(=O)[C@@H]1CCCN1C(=O)[C@H](CCCCN)NC(=O)[C@H](CCCCN)NC(=O)[C@H](CO)NC(=O)[C@H](CCC(=O)O)NC(=O)[C@H](CCCCN)NC(=O)[C@H](CCCNC(=N)N)NC(=O)[C@H](CCC(N)=O)NC(=O)[C@H](CCC(N)=O)NC(=O)[C@@H](NC(=O)[C@H](CCCNC(=N)N)NC(=O)[C@H](CCC(N)=O)NC(=O)[C@H](Cc1cnc[nH]1)NC(=O)[C@H](CCC(=O)O)NC(=O)[C@@H]1CCCN1C(=O)[C@H](CO)NC(=O)[C@H](CC(C)C)NC(=O)[C@H](Cc1ccccc1)NC(=O)[C@H](CO)NC(=O)[C@H](CO)NC(=O)CN)C(C)C)C(=O)N[C@@H](CCC(N)=O)C(=O)N1CCC[C@H]1C(=O)N[C@@H](CCCNC(=N)N)C(=O)O	–	ELISA	healthy humans, both sexes, plasma	intravenous infusion, 4 µg/kg/h, 210 min	–	AUC(0-last)	0.0449 ± 0.0159 µg·h/mL
N=C(N)NCCC[C@@H]1NC(=O)[C@H](CCCCNC(=O)CNC(=O)CNC(=O)CNC(=O)CC[C@H](NC(=O)CCOCCOCCOCCOCCNC(=O)CC[C@H](NC(=O)CN2CCN(CC(=O)O)CCN(CC(=O)O)CCN(CC(=O)O)CC2)C(=O)NCCOCCOCCOCCOCCC(=O)N[C@@H](CCC(=O)NCC(=O)NCC(=O)NCC(=O)NCCCC[C@@H]2NC(=O)[C@@H](Cc3ccccc3)NC(=O)[C@H](CC(=O)O)NC(=O)CNC(=O)[C@H](CCCNC(=N)N)NC2=O)C(=O)NCC(=O)NCC(=O)NCC(=O)NCCCC[C@@H]2NC(=O)[C@@H](Cc3ccccc3)NC(=O)[C@H](CC(=O)O)NC(=O)CNC(=O)[C@H](CCCNC(=N)N)NC2=O)C(=O)NCC(=O)NCC(=O)NCC(=O)NCCCC[C@@H]2NC(=O)[C@@H](Cc3ccccc3)NC(=O)[C@H](CC(=O)O)NC(=O)CNC(=O)[C@H](CCCNC(=N)N)NC2=O)NC(=O)[C@@H](Cc2ccccc2)NC(=O)[C@H](CC(=O)O)NC(=O)CNC1=O [indium-111 labelled]	–	–	athymic nude mice, female, U-87 MG glioma xenograft, spleen	intravenous, 3 µCi, 24 h	–	tissue uptake	1.06 ± 0.19 %ID/g
COc1cc(C(=O)NCCOCCOCCOCCNC(=O)c2ccc([18F])nc2)ccc1NC(=O)C1NC(CC(C)(C)C)C(C#N)(c2ccc(Cl)cc2F)C1c1cccc(Cl)c1F (stereo not drawn)	SJSA-1 tumour model	–	host not given, liver	2 h, tumour-bearing	–	tracer uptake	0.99 %ID/g
CN[C@](C)(C[18F])C(=O)O	–	–	SCID mouse U87 xenograft, lung	30 min, post injection	–	tissue uptake	2.8 ± 0.9 %ID/g
CCCC[C@H](NC(=O)CNC(=O)CNC(=O)c1ccc(NN)nc1)C(=O)N[C@H]1CC(=O)NCCCC[C@@H](C(N)=O)NC(=O)[C@H](Cc2c[nH]c3ccccc23)NC(=O)[C@H](CCCNC(=N)N)NC(=O)[C@@H](Cc2ccccc2)NC(=O)[C@H](Cc2c[nH]cn2)NC1=O [technetium-99m labelled]	–	–	C57 mouse, B16/F1 melanoma-bearing, pancreas	intravenous, 0.5 h	–	tissue uptake	0.5 ± 0.21 %ID/g
CSCC[C@H](NC(=O)CNC(=O)[C@H](CC(=O)O)NC(=O)[C@@H](NC(=O)[C@@H](NC(=O)[C@@H](NC(=O)CNC(=O)[C@H](CCC(N)=O)NC(=O)[C@H](CCSC)NC(=O)[C@H](CC(=O)O)NC(=O)[C@H](C)NC(=O)[C@H](C)NC(=O)[C@@H](NC(=O)[C@H](CO)NC(=O)[C@@H](N)CC(C)C)[C@@H](C)O)C(C)C)C(C)C)[C@@H](C)O)C(=O)N[C@@H](C)C(=O)N[C@@H](CO)C(=O)NCC(=O)N[C@@H](CC(C)C)C(=O)N[C@@H](CC(=O)O)C(=O)N[C@@H](CCCCN)C(=O)N[C@@H](CC(=O)O)C(=O)N[C@@H](Cc1ccc(O)cc1)C(=O)N[C@@H](CC(C)C)C(=O)N[C@@H](CCCCN)C(=O)N1CCC[C@H]1C(=O)N[C@@H](CC(=O)O)C(=O)N[C@@H](CC(=O)O)C(=O)O	–	–	human, serum	intravenous, 0.83 mg/kg, patients, infusion	–	Cmax	1010 ng/mL
C/C=C/C=C/C/C=C/CCCCCCCc1cccc(O)c1O	–	–	female Kunming mice tumour-bearing, kidneys	intravenous, 10 mg/kg, 8 h	–	tissue concentration	4250 ± 1020 ng/g
N=C(N)NCCC[C@@H]1NC(=O)[C@H](CCCCNC(=O)CCOCCOCCOCCOCCNC(=O)CC[C@H](NC(=O)CCOCCOCCOCCOCCNC(=O)CC[C@H](NC(=O)CN2CCN(CC(=O)O)CCN(CC(=O)O)CCN(CC(=O)O)CC2)C(=O)NCCOCCOCCOCCOCCC(=O)N[C@@H](CCC(=O)NCCOCCOCCOCCOCCC(=O)NCCCC[C@@H]2NC(=O)[C@@H](Cc3ccccc3)NC(=O)[C@H](CC(=O)O)NC(=O)CNC(=O)[C@H](CCCNC(=N)N)NC2=O)C(=O)NCCOCCOCCOCCOCCC(=O)NCCCC[C@@H]2NC(=O)[C@@H](Cc3ccccc3)NC(=O)[C@H](CC(=O)O)NC(=O)CNC(=O)[C@H](CCCNC(=N)N)NC2=O)C(=O)NCCOCCOCCOCCOCCC(=O)NCCCC[C@@H]2NC(=O)[C@@H](Cc3ccccc3)NC(=O)[C@H](CC(=O)O)NC(=O)CNC(=O)[C@H](CCCNC(=N)N)NC2=O)NC(=O)[C@@H](Cc2ccccc2)NC(=O)[C@H](CC(=O)O)NC(=O)CNC1=O [indium-111 labelled]	–	–	athymic nude mice, female, U-87 MG glioma xenograft, tumour and blood	intravenous, 4 h	baseline: tumour over blood	tumour to tissue ratio	42.1 ± 16
O=C([O-])C[N+]12CC(=O)[O][Re-2]1[O]P(=O)([O-])C2.[C-]#[O+].[C-]#[O+].[C-]#[O+] (stereo not drawn)	–	HPLC	aqueous solution	1 d, pH 12, room temperature	–	isomer fraction at equilibrium	59%
c1ccc(C2(CCNC3CCC4(SCCS4)c4ccccc43)CCOC3(CCCC3)C2)nc1 (stereo not drawn)	–	–	rat plasma	–	–	unbound fraction	0.0055
N=C(N)NCc1ccc(C(=O)NCCCC[C@H](NC(=O)N[C@@H](CCC(=O)O)C(=O)O)C(=O)O)cc1[131I]	–	–	SCID mouse, PC-3 xenografts, liver	14 h	–	tissue uptake	0.38 ± 0.26 %ID/g
COc1ccc(F)cc1S(=O)(=O)Nc1cnc2c(c1)C(=O)NCCO2	–	–	C57BL/6J mice, plasma	oral, 1 mg/kg	–	AUC(0-inf)	0.335 ± 0.076 µg·h/mL
O=c1cc(-c2ccccc2)oc2c(Br)c(O)c(O)c(O)c12	–	–	C57BL/6 mouse, plasma	oral, 250 mg/kg, single dose	–	AUC(0-inf)	54.5 µg·h/mL
CC[C@H](C)C(=O)N1CCC(NC(=O)Nc2ccc(OC(F)(F)F)c(F)c2)CC1	–	–	healthy volunteers	oral, 16 mg single dose	–	subjects with UTI TEAE	0%
CCCC[C@H]1C(=O)N(C)[C@@H](CCCC)C(=O)N[C@@H](CC(C)C)C(=O)N[C@H](C(=O)NCC(N)=O)CSCC(=O)N[C@@H](Cc2ccc(O)cc2)C(=O)N2CCCC[C@H]2C(=O)N[C@@H](CC(N)=O)C(=O)N2C[C@H](O)C[C@H]2C(=O)N[C@@H](CN)C(=O)N[C@@H](CC(C)C)C(=O)N2C[C@H](O)C[C@H]2C(=O)N[C@@H](Cc2c[nH]c3ccccc23)C(=O)N[C@@H](CCN)C(=O)N[C@@H](Cc2cn(CC(=O)O)c3ccccc23)C(=O)N1C	–	RP-HPLC	human serum 10%	18 h	–	serum stability	stable
CC[C@H](C)[C@H](NC(=O)[C@H](CCCCN)NC(=O)CNC(=O)[C@H](CC(C)C)NC(=O)[C@@H](NC(=O)[C@H](C)NC(=O)[C@H](CCCCN)NC(=O)CNC(=O)[C@H](C)NC(=O)CNC(=O)[C@H](CCCCN)NC(=O)[C@H](CCSC)NC(=O)[C@H](CCCCN)NC(=O)[C@@H](NC(=O)[C@H](Cc1c[nH]c2ccccc12)NC(=O)[C@H](CC(C)C)NC(=O)[C@H](CCC(N)=O)NC(=O)[C@H](CCCCN)NC(=O)[C@H](CC(C)C)NC(=O)[C@@H](N)CC(C)C)[C@@H](C)O)C(C)C)C(=O)N[C@@H](CCCCN)C(=O)NCC(=O)N[C@@H](CC(C)C)C(=O)N[C@@H](CC(C)C)C(=O)O	–	acrylamide quenching	PC:cholesterol vesicles, 250 µM lipid	2 µM, together with: acrylamide	–	Stern-Volmer constant	1.72 ± 0.16 M⁻¹
COC(=O)C[C@](O)(CCCC(C)(C)OC(C)=O)C(=O)O[C@@H]1C(OC)=C[C@]23CCCN2CCc2cc4c(cc2[C@H]13)OCO4	–	–	CD1 mouse, spleen	subcutaneous, 1 mg/kg, 2 h	–	tissue concentration	397 ng/mL
O=P1(NCCCl)NCCCO1 (stereo not drawn)	–	–	rat, plasma	intravenous, 10 mg/kg CP, together with: ketoconazole 0 mg/kg	–	AUC(0-t)	1.13 ± 0.15 µg·h/mL
CC(C)C[C@@H](NC(=O)[C@@H](CCCCN)NC(=O)CNC(=O)CNC(=O)[C@@H]1CSSC[C@H](N)C(=O)NCC(=O)N[C@@H](CCCNC(=N)N)C(=O)N[C@@H](CCCNC(=N)N)C(=O)N[C@@H](C)C(=O)NCC(=O)NCC(=O)N[C@@H](CO)C(=O)N1)C(=O)N[C@H](C)C(=O)N[C@H](CCCCN)C(=O)N[C@H](CC(C)C)C(=O)N[C@H](C)C(=O)N[C@H](CCCCN)C(=O)N[C@H](CCCCN)C(=O)N[C@H](CC(C)C)C(=O)N[C@H](C)C(=O)N[C@H](CCCCN)C(=O)N[C@H](CC(C)C)C(=O)N[C@H](C)C(=O)N[C@H](CCCCN)C(=O)O	–	–	cynomolgus monkey	intravenous infusion, 9 mg/kg, 2 h infusion	–	elimination rate constant	1.03 ± 0.22 h⁻¹
CC(C)C[C@H](NC(=O)[C@H](CCCCN)NC(=O)[C@H](CCC(=O)O)NC(=O)[C@H](C)NC(=O)[C@@H](NC(=O)[C@H](CCCCN)NC(=O)[C@H](CC(=O)O)NC(=O)[C@H](Cc1ccc(O)cc1)NC(=O)[C@H](Cc1ccccc1)NC(=O)[C@H](C)NC(=O)[C@H](CCCCN)NC(=O)[C@H](CC(C)C)NC(=O)[C@H](Cc1c[nH]c2ccccc12)NC(=O)[C@@H](N)CC(=O)O)C(C)C)C(=O)N[C@@H](CCCCN)C(=O)N[C@@H](CCC(=O)O)C(=O)N[C@@H](C)C(=O)N[C@@H](Cc1ccccc1)C(=O)N1CCC[C@H]1C(=O)N[C@@H](CC(=O)O)C(=O)N[C@@H](Cc1c[nH]c2ccccc12)C(=O)N[C@@H](C)C(=O)N[C@@H](CCCCN)C(=O)N[C@@H](C)C(=O)N[C@@H](C)C(=O)N[C@@H](Cc1ccc(O)cc1)C(=O)N[C@@H](CC(=O)O)C(=O)N[C@@H](CCCCN)C(=O)N[C@@H](C)C(=O)N[C@@H](C)C(=O)N[C@@H](CCC(=O)O)C(=O)N[C@@H](CCCCN)C(=O)N[C@@H](C)C(=O)N[C@@H](CCCCN)C(=O)N[C@@H](CCC(=O)O)C(=O)N[C@@H](C)C(=O)N[C@@H](C)C(=O)O	–	–	cynomolgus monkey male, plasma	intravenous infusion, 25 mg/kg every other day, day 27	–	AUC(0-last)	1990 µg·h/mL
O=C(CN1CCN(c2cc3c(cc2F)c(=O)c(C(=O)O)cn3C2CC2)CC1)Nc1ccc(Cl)cc1	–	–	mouse, plasma	intravenous, 1.25 mg/kg	–	C0	11400 ng/mL
N#Cc1c(O)c(Cl)c(Cl)c(C#N)c1Cl	–	–	healthy human volunteers, plasma	oral, dose not given, 0 h, geometric mean, together with: rosuvastatin	–	rosuvastatin C0	2.64 ng/mL
CC(C)(CCCC/C=C/CCCCCC(C)(C)C(=O)O)C(=O)O	–	–	C57BL/6J mice, liver	oral, 30 mg/kg, 1 h	–	conversion to acyl-CoA	11.9%
CC(C)[C@H](NC(=O)CNC(=O)[C@H](CCC(N)=O)NC(=O)[C@H](C)N)C(=O)O	–	–	human	concentration not given, single dose, all dose groups	–	subjects with adverse event	25%
[2H]C([2H])([2H])C([2H])([2H])C([2H])([2H])OC(C(=O)OC1CCNCC1)(c1ccccc1)c1ccccc1	–	item: any	healthy Japanese male	oral, 8 mg once daily, 16 days	–	adverse drug reactions	0%

For quick reference, copied from above:
Structure (SMILES)	target or system	assay	system	conditions	scale	measurement	value
COC(=O)C[C@](O)(CCCC(C)(C)OC(C)=O)C(=O)O[C@@H]1C(OC)=C[C@]23CCCN2CCc2cc4c(cc2[C@H]13)OCO4	–	–	CD1 mouse, spleen	subcutaneous, 1 mg/kg, 2 h	–	tissue concentration	397 ng/mL
C/C=C/C=C/C/C=C/CCCCCCCc1cccc(O)c1O	–	–	female Kunming mice tumour-bearing, kidneys	intravenous, 10 mg/kg, 8 h	–	tissue concentration	4250 ± 1020 ng/g
CC[C@H](C)C(=O)N1CCC(NC(=O)Nc2ccc(OC(F)(F)F)c(F)c2)CC1	–	–	healthy volunteers	oral, 16 mg single dose	–	subjects with UTI TEAE	0%
COc1cc(C(=O)NCCOCCOCCOCCNC(=O)c2ccc([18F])nc2)ccc1NC(=O)C1NC(CC(C)(C)C)C(C#N)(c2ccc(Cl)cc2F)C1c1cccc(Cl)c1F (stereo not drawn)	SJSA-1 tumour model	–	host not given, liver	2 h, tumour-bearing	–	tracer uptake	0.99 %ID/g
